Measurements gathered from unrelated publications.
Every numbered part comes from another study and shows a few of its results, in no order. Substitutions count along the parent as printed.

Sample 1 — target: CCNF, cyclin fold, Cln2 fusion (human); technique: yeast growth competition, sequencing; medium: yeast; notes: strong parent motif; relative to: not given; direction: higher = stronger binding
Parent: WEE1 docking peptide (human); HKTFRKLRLFDTP
Substitution | normalised enrichment score
F10M | 1.4
K2W | 2.63
K2Q | 2.65
K6Q | 2.21

Sample 2 — technique: protein binding microarray; form: double-stranded DNA, one strand shown; medium: in vitro; tested at: not given; relative to: not given; direction: higher = stronger binding
Target: Histone acetyltransferase KAT6A, both winged helices, GST fusion (KAT6A, Homo sapiens, UniProt Q92794, residues 1-181)
Notes: 8-mer, flanks averaged, mean of 2 arrays, mostly near background
Residues (chain): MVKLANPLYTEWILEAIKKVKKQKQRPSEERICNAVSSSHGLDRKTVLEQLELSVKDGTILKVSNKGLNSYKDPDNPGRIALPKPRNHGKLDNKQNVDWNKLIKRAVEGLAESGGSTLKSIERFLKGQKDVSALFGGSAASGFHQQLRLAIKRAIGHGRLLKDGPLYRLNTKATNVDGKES
Strand | E-score
GAGTGTCA | -0.0363
TCCGGAGA | 0.127
ACCGGATG | 0.0867
AAACCGGA | 0.0242
AACGGGAC | 0.243

Sample 3 — technique: aptamer microarray, sandwich; form: DNA with 2'F-ANA; medium: in vitro; tested at: 200 nM; together with: Cy3 exosite-II aptamer, 400 nM; direction: higher = stronger binding; strand: GGTTGGTGTGGTTGG
Target: Prothrombin, mature alpha-thrombin (F2, Homo sapiens, UniProt P00734)
Notes: whole 15-mer aptamer, many near background
Modification | mean fluorescence intensity [a.u.]
2'F-ANA at 3 5 6 8 12 13 14 15 | 72.8
2'F-ANA at 1 2 4 6 7 8 12 14 15 | 65.3
2'F-ANA at 2 4 6 8 9 11 13 15 | 151
2'F-ANA at 5 9 11 12 15 | 122
2'F-ANA at 3 4 9 10 14 | 341
2'F-ANA at 2 3 4 5 6 8 9 10 11 12 15 | 53.6
2'F-ANA at 1 2 4 7 8 10 11 12 | 55.4

Further values, each from its own experiment
Molecule | target | assay | test system | setting | scale | measurement | value
PhoQ, residues 284 288 289 292 302 303 GLASVI | PhoP, residues 12 14 15 18 19 LHTVM (Escherichia coli, UniProt P23836) | Sort-seq, item: YFP reporter | E. coli | PhoQ-PhoP variant library, together with: 10 µM Mg2+ | relative to: high Mg2+ state, higher = stronger signaling | fold induction | 4.65

For quick reference, copied from above (sample 3):
Modification | mean fluorescence intensity [a.u.]
2'F-ANA at 3 5 6 8 12 13 14 15 | 72.8
2'F-ANA at 1 2 4 6 7 8 12 14 15 | 65.3
